Measured values of several laboratories.
A part holds a random share of what one study measured.
UniProt P37023, sequence (whole entry, looked up): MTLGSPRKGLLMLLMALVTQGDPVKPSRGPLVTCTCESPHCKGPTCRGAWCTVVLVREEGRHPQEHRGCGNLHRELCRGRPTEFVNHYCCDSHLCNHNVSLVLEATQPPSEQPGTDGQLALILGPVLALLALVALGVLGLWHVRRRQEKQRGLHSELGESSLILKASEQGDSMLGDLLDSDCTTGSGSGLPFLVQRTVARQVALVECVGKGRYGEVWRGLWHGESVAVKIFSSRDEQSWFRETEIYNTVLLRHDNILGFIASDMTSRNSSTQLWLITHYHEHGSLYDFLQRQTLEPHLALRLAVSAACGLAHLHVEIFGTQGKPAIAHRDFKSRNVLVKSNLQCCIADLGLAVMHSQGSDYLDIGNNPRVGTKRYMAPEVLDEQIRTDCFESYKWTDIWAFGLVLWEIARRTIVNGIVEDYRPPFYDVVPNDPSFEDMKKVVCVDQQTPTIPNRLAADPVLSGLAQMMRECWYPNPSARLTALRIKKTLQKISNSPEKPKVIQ
UniProt Q9BZL6, sequence (whole entry, looked up): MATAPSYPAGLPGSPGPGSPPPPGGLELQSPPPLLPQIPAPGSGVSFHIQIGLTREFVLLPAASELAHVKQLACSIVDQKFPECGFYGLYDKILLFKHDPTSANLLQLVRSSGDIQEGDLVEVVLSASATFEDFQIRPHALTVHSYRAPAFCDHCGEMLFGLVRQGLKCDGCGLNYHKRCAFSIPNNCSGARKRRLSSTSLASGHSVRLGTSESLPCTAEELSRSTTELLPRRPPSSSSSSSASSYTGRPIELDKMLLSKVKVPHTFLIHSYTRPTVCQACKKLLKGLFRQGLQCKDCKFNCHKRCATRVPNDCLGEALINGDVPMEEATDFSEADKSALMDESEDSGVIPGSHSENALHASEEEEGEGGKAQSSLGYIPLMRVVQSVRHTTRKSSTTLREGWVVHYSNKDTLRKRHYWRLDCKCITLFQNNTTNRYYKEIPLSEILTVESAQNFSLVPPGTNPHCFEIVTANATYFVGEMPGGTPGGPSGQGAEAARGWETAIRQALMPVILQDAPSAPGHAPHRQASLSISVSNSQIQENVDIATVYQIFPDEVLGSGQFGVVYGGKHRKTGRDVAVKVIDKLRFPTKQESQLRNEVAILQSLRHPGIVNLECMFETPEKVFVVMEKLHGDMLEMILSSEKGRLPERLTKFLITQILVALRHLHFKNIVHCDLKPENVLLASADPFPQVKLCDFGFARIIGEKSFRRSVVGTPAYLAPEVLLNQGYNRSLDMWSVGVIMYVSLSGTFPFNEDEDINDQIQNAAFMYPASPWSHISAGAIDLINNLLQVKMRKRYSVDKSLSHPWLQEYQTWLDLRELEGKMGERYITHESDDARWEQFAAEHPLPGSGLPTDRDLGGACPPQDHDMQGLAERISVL
UniProt Q8TD19, sequence (whole entry, looked up): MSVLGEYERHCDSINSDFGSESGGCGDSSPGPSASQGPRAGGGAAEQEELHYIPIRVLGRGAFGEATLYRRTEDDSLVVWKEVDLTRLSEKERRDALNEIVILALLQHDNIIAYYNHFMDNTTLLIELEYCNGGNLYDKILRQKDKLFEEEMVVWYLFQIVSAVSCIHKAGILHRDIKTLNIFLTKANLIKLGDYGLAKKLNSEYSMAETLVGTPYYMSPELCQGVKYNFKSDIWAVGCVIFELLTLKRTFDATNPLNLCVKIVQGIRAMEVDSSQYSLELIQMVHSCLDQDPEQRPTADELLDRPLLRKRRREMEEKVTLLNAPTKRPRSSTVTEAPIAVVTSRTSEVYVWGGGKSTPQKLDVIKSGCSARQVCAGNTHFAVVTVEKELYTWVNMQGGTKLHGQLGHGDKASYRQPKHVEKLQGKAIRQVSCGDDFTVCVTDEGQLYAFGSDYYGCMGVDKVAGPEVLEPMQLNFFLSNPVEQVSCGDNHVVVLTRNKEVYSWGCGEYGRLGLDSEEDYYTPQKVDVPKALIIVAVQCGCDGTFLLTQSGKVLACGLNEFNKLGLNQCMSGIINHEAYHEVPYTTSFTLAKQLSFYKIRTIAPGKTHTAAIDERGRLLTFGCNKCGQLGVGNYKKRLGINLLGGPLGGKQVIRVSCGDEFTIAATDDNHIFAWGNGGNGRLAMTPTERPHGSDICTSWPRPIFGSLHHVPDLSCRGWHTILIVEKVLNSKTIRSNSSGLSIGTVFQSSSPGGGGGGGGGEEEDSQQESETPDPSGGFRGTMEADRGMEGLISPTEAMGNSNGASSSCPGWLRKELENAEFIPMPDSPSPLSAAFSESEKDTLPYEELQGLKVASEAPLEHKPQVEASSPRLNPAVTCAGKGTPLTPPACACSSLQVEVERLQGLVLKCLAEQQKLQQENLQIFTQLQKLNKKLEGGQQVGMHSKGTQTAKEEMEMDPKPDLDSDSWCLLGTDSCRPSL
UniProt P10721, sequence (whole entry, unmodified, looked up): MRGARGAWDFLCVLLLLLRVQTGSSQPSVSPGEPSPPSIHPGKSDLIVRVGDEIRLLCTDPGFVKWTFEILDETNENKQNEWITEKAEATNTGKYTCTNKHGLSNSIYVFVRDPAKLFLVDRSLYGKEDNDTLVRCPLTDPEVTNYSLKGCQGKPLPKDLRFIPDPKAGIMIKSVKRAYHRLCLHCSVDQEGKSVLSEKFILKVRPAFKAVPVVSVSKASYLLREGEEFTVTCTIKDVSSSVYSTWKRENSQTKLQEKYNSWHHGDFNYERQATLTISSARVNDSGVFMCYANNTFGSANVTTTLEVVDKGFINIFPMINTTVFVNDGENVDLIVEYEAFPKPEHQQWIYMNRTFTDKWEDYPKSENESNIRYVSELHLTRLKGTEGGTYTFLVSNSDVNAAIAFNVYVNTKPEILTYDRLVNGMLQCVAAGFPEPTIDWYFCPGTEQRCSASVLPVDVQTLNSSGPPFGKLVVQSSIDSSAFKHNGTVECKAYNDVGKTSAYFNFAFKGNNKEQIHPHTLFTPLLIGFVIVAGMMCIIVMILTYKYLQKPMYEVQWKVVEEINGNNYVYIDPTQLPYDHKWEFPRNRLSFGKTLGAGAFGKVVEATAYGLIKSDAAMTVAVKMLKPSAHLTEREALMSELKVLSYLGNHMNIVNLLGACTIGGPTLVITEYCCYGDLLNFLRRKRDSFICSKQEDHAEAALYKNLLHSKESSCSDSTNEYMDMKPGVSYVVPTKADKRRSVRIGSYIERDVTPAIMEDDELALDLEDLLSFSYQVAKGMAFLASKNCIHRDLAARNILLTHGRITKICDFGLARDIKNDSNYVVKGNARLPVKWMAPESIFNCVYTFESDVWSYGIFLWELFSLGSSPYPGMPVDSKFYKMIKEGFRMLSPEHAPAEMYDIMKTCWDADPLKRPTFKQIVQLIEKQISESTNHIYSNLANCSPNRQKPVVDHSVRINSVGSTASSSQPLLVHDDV
UniProt Q8TDX7, sequence (whole entry, looked up): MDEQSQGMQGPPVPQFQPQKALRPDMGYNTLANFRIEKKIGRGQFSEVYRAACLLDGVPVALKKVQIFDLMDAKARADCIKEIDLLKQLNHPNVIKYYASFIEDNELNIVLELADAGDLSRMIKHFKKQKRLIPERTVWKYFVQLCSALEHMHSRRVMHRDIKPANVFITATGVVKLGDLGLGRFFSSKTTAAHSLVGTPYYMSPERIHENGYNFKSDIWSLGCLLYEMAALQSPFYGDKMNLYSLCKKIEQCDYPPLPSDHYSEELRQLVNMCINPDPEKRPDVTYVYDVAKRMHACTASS
UniProt Q00536, sequence (whole entry, looked up): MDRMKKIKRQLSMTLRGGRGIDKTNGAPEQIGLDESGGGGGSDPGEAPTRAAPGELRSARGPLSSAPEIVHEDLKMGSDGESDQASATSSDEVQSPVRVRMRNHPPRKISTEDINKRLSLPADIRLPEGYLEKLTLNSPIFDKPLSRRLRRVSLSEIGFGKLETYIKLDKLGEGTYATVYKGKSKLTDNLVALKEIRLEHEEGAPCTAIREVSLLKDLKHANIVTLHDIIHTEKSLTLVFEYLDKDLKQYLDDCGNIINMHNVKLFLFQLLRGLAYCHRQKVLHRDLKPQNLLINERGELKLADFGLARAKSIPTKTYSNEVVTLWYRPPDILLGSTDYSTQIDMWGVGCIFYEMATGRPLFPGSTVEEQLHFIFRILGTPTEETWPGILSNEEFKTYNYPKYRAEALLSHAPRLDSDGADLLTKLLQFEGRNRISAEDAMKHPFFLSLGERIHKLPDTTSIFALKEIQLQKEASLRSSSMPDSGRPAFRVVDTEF

Block 1 — effect on: enzyme activity; action: inhibitor; concentration: 0.5 µM; reference: control
Target: Serine/threonine-protein kinase PLK1 (PLK1, Homo sapiens, UniProt P53350)
UniProt P53350, sequence (whole entry, looked up): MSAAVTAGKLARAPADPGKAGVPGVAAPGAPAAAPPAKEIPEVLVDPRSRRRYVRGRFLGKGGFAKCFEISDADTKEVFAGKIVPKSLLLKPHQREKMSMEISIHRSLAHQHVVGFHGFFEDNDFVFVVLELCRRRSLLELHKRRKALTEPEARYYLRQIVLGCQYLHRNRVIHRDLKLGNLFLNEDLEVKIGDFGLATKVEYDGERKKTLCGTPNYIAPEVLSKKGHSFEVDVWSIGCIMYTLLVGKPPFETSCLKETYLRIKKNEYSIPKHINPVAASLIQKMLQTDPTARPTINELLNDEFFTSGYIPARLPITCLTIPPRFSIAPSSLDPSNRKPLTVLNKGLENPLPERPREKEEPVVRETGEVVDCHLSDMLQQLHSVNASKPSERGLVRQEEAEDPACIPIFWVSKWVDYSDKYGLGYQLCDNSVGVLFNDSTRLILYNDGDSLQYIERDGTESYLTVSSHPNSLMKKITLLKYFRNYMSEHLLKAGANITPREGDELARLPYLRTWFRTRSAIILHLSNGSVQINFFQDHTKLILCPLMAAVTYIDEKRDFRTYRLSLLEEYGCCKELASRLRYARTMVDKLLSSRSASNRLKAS
For `Cc1cc(Nc2cc(N3CCN(C)CC3)nc(Sc3ccc(NC(=O)C4CC4)cc3)n2)[nH]n1`, the remaining activity was 95.2%.
With `CN1CCN(c2ccc3nc(-c4c(N)c5c(F)cccc5[nH]c4=O)[nH]c3c2)CC1` the remaining activity was 96.9%.
The remaining activity of `CCCCc1c(-c2ccc(OC)cc2)[nH]c2nccnc12` is reported as 104%.
`c1ccc(-c2n[nH]c3c2oc2ccccc23)cc1` has a remaining activity of 106%.
With `COc1ccc2c(c1)c(C1=C(c3c[nH]c4ccccc34)C(=O)NC1=O)cn2CCCN(C)C` the remaining activity was 104%.
`Oc1cccc(-c2nc(N3CCOCC3)c3oc4ncccc4c3n2)c1` has a remaining activity of 97.9%.
`COc1cccc(-c2cc(=O)c3ccccc3o2)c1N` has a remaining activity of 88.2%.
`Cc1ccc(S(=O)(=O)/C=C/C#N)cc1` gave a remaining activity of 110%.
The remaining activity of `O=C1NC(=O)c2c1c1c3ccccc3[nH]c1c1[nH]c3cc(Br)ccc3c21` is reported as 91.2%.
The remaining activity of `O=C1Nc2ccc(Br)cc2/C1=C/c1cc2c([nH]1)CCCC2` is reported as 102%.
For `O=C1NC(=O)c2c1c1c3ccccc3[nH]c1n1cncc21`, the remaining activity was 50.8%.
For `CN(C)S(=O)(=O)c1ccc2c(c1)/C(=C/c1cc3c([nH]1)CCCC3)C(=O)N2`, the remaining activity was 101%.
With `COc1ccc(COc2ccc(Cc3cnc(N)nc3N)cc2OC)cc1` the remaining activity was 97.1%.
For `CCCNC(=O)Nc1ccc(Oc2ncnc3cc(OC)c(OC)cc23)cc1Cl`, the remaining activity was 101%.
`O=C1Cc2c([nH]c3ccc(Br)cc23)-c2ccccc2N1` has a remaining activity of 94.9%.
`O=C(c1cc2cc(O)ccc2[nH]1)c1cc2cc(O)ccc2[nH]1` gave a remaining activity of 101%.
The remaining activity of `O=Nc1c(-c2c(O)[nH]c3cc(Br)ccc23)[nH]c2ccccc12` is reported as 101%.
With `c1ccc2c(-c3ccncc3)c[nH]c2c1` the remaining activity was 102%.
The remaining activity of `O=C1Nc2ccccc2/C1=C\c1c(Cl)[nH]c2ccccc12` is reported as 95.4%.
`N#Cc1cnc2cnc(NCc3cccnc3)cc2c1Nc1ccc(F)c(Cl)c1` gave a remaining activity of 92.6%.

Block 2 — method: competition with immobilised ligand; concentration: 0.1 µM
SMILES: C[C@H](c1ccnc(Nc2nc3ccc(-c4cc(N(C)C)ncn4)cc3[nH]2)c1)N1CCN(C(=O)CC(F)(F)F)CC1
The remaining binding was 100% (STK32C (Homo sapiens, UniProt Q86UX6); cell-free assay).
PRKD2 (Homo sapiens, UniProt Q9BZL6); cell-free assay — remaining binding: 100%.
For KIT (Homo sapiens, UniProt P10721, A829P); cell-free assay: remaining binding read 83%.
MAP3K6 (Homo sapiens, UniProt O95382); cell-free assay — remaining binding: 100%.
The remaining binding was 100% (NEK9 (Homo sapiens, UniProt Q8TD19); cell-free assay).
NEK10 (Homo sapiens, UniProt Q6ZWH5); cell-free assay — remaining binding: 100%.
The remaining binding was 100% (CDK16 (Homo sapiens, UniProt Q00536); cell-free assay).
The remaining binding was 94% (LRRK2 (Homo sapiens, UniProt Q5S007); cell-free assay).
It gave 100% for remaining binding (NEK7 (Homo sapiens, UniProt Q8TDX7); cell-free assay).
CSK (Homo sapiens, UniProt P41240); cell-free assay — remaining binding: 100%.
The remaining binding was 100% (ACVRL1 (Homo sapiens, UniProt P37023); binding).
EPHA7 (Homo sapiens, UniProt Q15375); cell-free assay — remaining binding: 100%.

Block 3
SMILES: CC(C)n1cnc(-c2ccc(F)cc2)c1-c1ncc(C(=O)Nc2ccc(N3CCN(C)CC3)cc2)[nH]1
For Phase 2a trial, item: hypertriglyceridaemia; human, idiopathic pulmonary fibrosis; all compound arms total, grade 3: “patients with adverse event” read 0%.
For Phase 2a trial, item: hypocalcaemia; human, idiopathic pulmonary fibrosis; all compound arms total, grade 4: “patients with adverse event” read 0%.
For Phase 2a trial, item: hypertriglyceridaemia; human, idiopathic pulmonary fibrosis; 30 mg once daily, grade 2: “patients with adverse event” read 0%.
For Phase 2a trial, item: blood glucose increased; human, idiopathic pulmonary fibrosis; all compound arms total, grade 5: “patients with adverse event” read 0%.
For Phase 2a trial, item: blood fibrinogen increased; human, idiopathic pulmonary fibrosis; 30 mg once daily, grade 3: “patients with adverse event” read 0%.
It gave 0% for “patients with adverse event” (Phase 2a trial, item: blood pressure increased; human, idiopathic pulmonary fibrosis; 30 mg once daily, grade 5).
The “patients with adverse event” was 0% (Phase 2a trial, item: blood creatinine increased; human, idiopathic pulmonary fibrosis; all compound arms total, grade 2).
item: periorbital oedema, grade 3; idiopathic pulmonary fibrosis patients; oral, 60 mg once daily — “patients with adverse event”: 0%.
The “patients with adverse event” was 0% (Phase 2a trial, item: hyperuricaemia; human, idiopathic pulmonary fibrosis; all compound arms total, grade 3).
For Phase 2a trial, item: blood lactate dehydrogenase increased; human, idiopathic pulmonary fibrosis; all compound arms total, grade 4: “patients with adverse event” read 0%.
It gave 0% for “patients with adverse event” (Phase 2a trial, item: hypercholesterolaemia; human, idiopathic pulmonary fibrosis; 30 mg once daily, grade 5).
It gave 0% for “patients with adverse event” (Phase 2a trial, item: blood urea increased; human, idiopathic pulmonary fibrosis; all compound arms total, grade 2).
item: pulmonary embolism; patients with idiopathic pulmonary fibrosis; dose not given, trial, all compound arms — “patients with adverse event”: 0%.
For Phase 2a trial, item: hypoalbuminaemia; human, idiopathic pulmonary fibrosis; 60 mg once daily, grade 5: “patients with adverse event” read 0%.
For Phase 2a trial, item: blood pressure increased; human, idiopathic pulmonary fibrosis; 60 mg once daily, grade 1: “patients with adverse event” read 0%.
Phase 2a trial, item: hyperuricaemia; human, idiopathic pulmonary fibrosis; all compound arms total, grade 4 — “patients with adverse event”: 0%.
For Phase 2a trial, item: hypertriglyceridaemia; human, idiopathic pulmonary fibrosis; 60 mg once daily, grade 3: “patients with adverse event” read 0%.
It gave 0% for “patients with adverse event” (Phase 2a trial, item: hepatic steatosis; human, idiopathic pulmonary fibrosis; all compound arms total, grade 3).

Block 4 — dose: dose not given; reference: vehicle
Structure (SMILES): CC(=O)N[C@@H](Cc1c[nH]c2ccccc12)C(=O)N[C@@H](CCC(=O)C=[N+]=[N-])C(=O)OC(C)C
item: N-alpha-acetylornithine; mouse, EL4 tumour-bearing, EL4 tumour — “log2 fold change”: -0.432.
For item: lysine; mouse, EL4 tumour-bearing, EL4 tumour: “log2 fold change” read 0.249.
item: acetylphosphate; mouse, EL4 tumour-bearing, EL4 tumour — “log2 fold change”: 0.649.
It gave 0.331 for “log2 fold change” (item: 3-(3-hydroxyphenyl)propionate sulfate; mouse, EL4 tumour, tumour).
For item: N-acetylglutamate; mouse, EL4 tumour-bearing, EL4 tumour: “log2 fold change” read 1.24.
The “log2 fold change” was 0.449 (item: o-Tyrosine; mouse, EL4 tumour-bearing, EL4 tumour).
The “log2 fold change” was -0.397 (item: thymidine; mouse, EL4 tumour-bearing, EL4 tumour).
item: N2,N2-dimethylguanosine; Mus musculus, EL4 tumour — “log2 fold change”: -1.23.
For item: bilirubin; mouse, EL4 tumour-bearing, EL4 tumour: “log2 fold change” read 0.314.
For item: glucosamine-6-phosphate; mouse, EL4 tumour-bearing, EL4 tumour: “log2 fold change” read 0.788.
It gave -0.0474 for “log2 fold change” (item: alanine; mouse, EL4 tumour-bearing, EL4 tumour).
For item: alpha-tocopherol; mouse, EL4 tumour-bearing, EL4 tumour: “log2 fold change” read 0.591.
It gave 0.305 for “log2 fold change” (item: spermine; mouse, EL4 tumour-bearing, EL4 tumour).
For item: phosphoenolpyruvate; mouse, EL4 tumour, tumour: “log2 fold change” read 0.761.
For item: 2'-deoxyguanosine 5'-monophosphate; mouse, EL4 tumour, tumour: “log2 fold change” read -0.0369.

Some of these lines once more (block 3):
It gave 0% for “patients with adverse event” (Phase 2a trial, item: hypercholesterolaemia; human, idiopathic pulmonary fibrosis; 30 mg once daily, grade 5).
For Phase 2a trial, item: hypertriglyceridaemia; human, idiopathic pulmonary fibrosis; 60 mg once daily, grade 3: “patients with adverse event” read 0%.
For Phase 2a trial, item: blood pressure increased; human, idiopathic pulmonary fibrosis; 60 mg once daily, grade 1: “patients with adverse event” read 0%.
For Phase 2a trial, item: blood glucose increased; human, idiopathic pulmonary fibrosis; all compound arms total, grade 5: “patients with adverse event” read 0%.
It gave 0% for “patients with adverse event” (Phase 2a trial, item: hepatic steatosis; human, idiopathic pulmonary fibrosis; all compound arms total, grade 3).
Phase 2a trial, item: hyperuricaemia; human, idiopathic pulmonary fibrosis; all compound arms total, grade 4 — “patients with adverse event”: 0%.
It gave 0% for “patients with adverse event” (Phase 2a trial, item: blood pressure increased; human, idiopathic pulmonary fibrosis; 30 mg once daily, grade 5).
